# Published values pooled from the literature.
# Each numbered part is a random draw from the data of one study; scales do not carry over between parts.

# Study 1 — technique: RNA Bind-n-Seq; form: RNA; sample: in vitro; concentration: not given; reference: input RNA pool; reading: higher = stronger binding
# Target: RING finger protein unkempt homolog, zinc fingers 1-6, GST-SBP tag (UNK, Homo sapiens, UniProt Q9C0B0, residues 30-357)
# Sequence of UniProt Q9C0B0 (30-357, looked up): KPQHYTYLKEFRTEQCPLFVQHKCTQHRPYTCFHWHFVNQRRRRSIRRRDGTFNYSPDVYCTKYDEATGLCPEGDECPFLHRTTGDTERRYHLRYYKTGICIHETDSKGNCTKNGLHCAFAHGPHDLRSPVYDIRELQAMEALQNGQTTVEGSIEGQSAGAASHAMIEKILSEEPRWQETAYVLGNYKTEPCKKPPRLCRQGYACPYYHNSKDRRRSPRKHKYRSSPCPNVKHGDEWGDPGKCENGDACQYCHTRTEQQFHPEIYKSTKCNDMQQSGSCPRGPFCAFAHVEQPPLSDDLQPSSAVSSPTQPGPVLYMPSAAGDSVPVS
# Notes: RNA with constant flanks, human and mouse sites, ends assumed
Oligonucleotide,bound/input enrichment [ratio]
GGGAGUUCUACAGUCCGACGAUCCUCGUGCACUCCAGGGCAAGUGCUCUACUCACUAAACACUUUUCUGUUGAAUGAGAUUUUUCUUACCCUUUAAGGUGCUGUCUCCUAAAAUAAAAACCUCGAGACUGUCCCUACUUGUUGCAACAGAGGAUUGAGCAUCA,0.174
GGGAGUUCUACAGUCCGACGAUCAAAGUUUCAAACACUUUCACUUACGCCAGAGUACUGUAAAAUCUAUGUCUUUUCCAGCGUUAGCAUUAAGCCGGGCGCCGUUUGCCGUGUCCUUCGUUCCACGAGCCCUUUGGUUUUUACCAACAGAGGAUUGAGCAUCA,0.169
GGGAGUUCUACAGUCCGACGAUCAUUGAAAAUAUGAUGAACUCUAUCUUUAAGGGUAUAUUUGUUCAUCGAUACCGUGAUGCAAUUGCUGAAAUUCGAGCCAUCUGUAUUGAAGAAAUUGGAGUGUGGAUGAAAAUGUAUAGCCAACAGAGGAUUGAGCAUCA,0.26
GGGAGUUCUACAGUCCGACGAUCUACCUCCUCAGCGAUGGGACCUGCAAGUGCGGUCUGGAGUGUCCACUUAAUGUCCCCAAGGUUUUCAACUUUGACCCUUUGGCCCCGGUGACCCCGGGUGGGGCUGGGGUGGGGCCAGCACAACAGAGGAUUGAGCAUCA,0.129
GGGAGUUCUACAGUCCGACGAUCCUGAAACAAUAUUGAUUCAAAUUAUUCUCCCUACCCUUAUUUACAGCUGCUGUUUUUAUUUUUAAGGAAUGGUCGUUGGAGGUCAGAGUGGAAGUUUACAGUCACUCCUUCCACCACACACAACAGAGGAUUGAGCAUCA,0.433
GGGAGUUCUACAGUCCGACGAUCUUUAACCAUGUGUCUACAAGAAUAAGUUUGUUUUGGAAAGUUGAGCUAUAGCUACAGCUCUAGCUAUCCAGCAGACUUUUCAUUAUGACUUACAUGGCAGGAGCUCUAAUUAUGCUUUAACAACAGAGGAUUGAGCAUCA,0.152
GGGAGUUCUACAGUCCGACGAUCCCAACAACAAAAAUUCAAAUCAGGUUAGCAGAUGGGAGUCGUUUGAUACAAAGAUUCAAUAGUACACACAGGAUCCUGGAUGUCCGGAACUUUAUUGUACAGUCUCGUCCUGAAUUUGCGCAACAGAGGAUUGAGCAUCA,0.254
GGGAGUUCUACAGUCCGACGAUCAUUAGAAAUGAUACUUUCAGUGACUCUCCAGUUUGGCCCUGGAUCCCAUCUUUGUCUGAUAUAGCAGCUGUAUUCUUCAACAUGGGCGUUGGUUUUGGAUCUUUGUUUCCUCUGGAGACUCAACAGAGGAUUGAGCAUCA,0.796

# Study 2 — technique: RNA Bind-n-Seq; form: RNA; sample: in vitro; concentration: 365 nM; reference: no-protein control; reading: higher = stronger binding
# Target: RNA binding protein fox-1 homolog 2, RRM domain, GST-SBP tag (RBFOX2, Homo sapiens, UniProt O43251-10, residues 100-194)
# Notes: natural RNA segment, single round, ends assumed
# Residues (chain): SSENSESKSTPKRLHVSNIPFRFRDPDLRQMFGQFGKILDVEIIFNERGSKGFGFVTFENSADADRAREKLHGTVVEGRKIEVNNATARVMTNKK
Oligonucleotide,RBNS enrichment (R)
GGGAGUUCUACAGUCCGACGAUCAGUGCCCAGGGUCCUUUUCUGGCGAGAUGAGGCCAUGCACCACUUGCUCAGCACAGAGGCCAGCUUGCGGGAGCUCUGCGUCUCAGGCAGGUGGGACCUCUGAGACACUGUGGAAUUCUCGGGUGCCAA,0.448
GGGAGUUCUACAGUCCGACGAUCCAAACUUGCUUGUGAUUGACUUGGUGCAAUACAGUUCCUUUCUAAACGUUUCUGGUUUAGAGAAUACUCAGCCAUCCUGGAAACUAGCAAUAUUUAUUUUGCCUCAUUUAUGGAAUUCUCGGGUGCCAA,0.316
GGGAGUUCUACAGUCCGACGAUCUGACCUUUAUUGAAUCUGAAAUGAUACAUAGCUGUGUGUGUAUAUAUAUUUUUUAAAAAUAGGUUCAUUGAACAUAAAUCAGAUUGUUUGAGGUCAUUUUUCAGCAACAUUGGAAUUCUCGGGUGCCAA,0.759
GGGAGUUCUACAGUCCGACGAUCGGUAUUUUCGAACAAUAGGAAACUAUUUUUUCUCCUUUUUUUACAGUUUUAGUACGUAUCUGGCUUGUAUGUGGAAGACUAAAAAGUUGAUUUGCUAAAUGUGGUCUUUGUGGAAUUCUCGGGUGCCAA,0.599
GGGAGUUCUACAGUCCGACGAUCUGGAUACUCAUUAAUUCUUUUGUUAAUAUUUAUUUCCAUGAUAGCAUCAUUCCAGCCAGACUUGCUGAAAAUCUACUGGUGAGGCAAAUAUAAUAUAUAUAAAUAUGCUAUGGAAUUCUCGGGUGCCAA,0.46
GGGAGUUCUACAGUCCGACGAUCUGAUGAUACCUCACAUGUUGACCGGCUAUGUGAACUGCCUAUUUCCUAUGCUGGAGUUUUGAUUUUUAACUAAACGCAAAUCUGUAGAUUCUCUCCUCUCCCAUCCCAGAUGGAAUUCUCGGGUGCCAA,0.716
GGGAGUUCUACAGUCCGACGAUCAAUGCUGUUCUUUAGUAGCAACUAAAAUGUGUCUUGCUGUCAUUUAUAUUCCUUUUCCCAGGAAAGAAGCAUUUCUGAUACUUUCUGUCAAAAAUCAAUAUGCAGAAUGGUGGAAUUCUCGGGUGCCAA,0.232
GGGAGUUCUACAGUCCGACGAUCCUUCUACUACUUGCUAUUACCUCCUUGUAUGAGAAAUGGAUUAAACUUCUAUGCCUAUGGUUGGUCACUGUGGUAUCUGCAUUUCCACCAUGACAUACAGUUUCAGGUAAUGGAAUUCUCGGGUGCCAA,0.288
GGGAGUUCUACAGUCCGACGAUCUGGAGGCCAUUAUCACUGGGCUGCUGCUUUCCUGGGCAAGCCACUCUCUAUUUUUCUGCAAAGGUCAAAAGACCCUGGUGUUGGGGGCCCUUUAGAGGGUGUGCUUUGGAUGGAAUUCUCGGGUGCCAA,0.506

# Study 3 — technique: protein binding microarray; form: double-stranded DNA, one strand shown; sample: in vitro; concentration: not given; reference: not given; reading: higher = stronger binding
# Target: Histone acetyltransferase KAT6A, winged helix 2, GST fusion (KAT6A, Homo sapiens, UniProt Q92794, residues 85-181)
# Notes: 8-mer, flanks averaged, mean of 2 arrays, mostly near background
# Residues (chain): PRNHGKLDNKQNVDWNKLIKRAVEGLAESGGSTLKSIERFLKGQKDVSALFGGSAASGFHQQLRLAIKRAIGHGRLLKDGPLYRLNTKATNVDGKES
Oligonucleotide,E-score
ATGAGTGG,-0.0386
GGTACGGA,-0.0766
TAGCTTGA,0.0232
AATCTGTC,-0.0368
GATTATAC,0.0193
GAGACCAC,0.102
CTGCAGGC,-0.0127
ACCCTAAG,-0.113
GCTTCGGA,0.00108
AGTCACCG,-0.0995
AGTCTTCC,-0.0602
ACCAGTGC,0.0182
CACTGGGC,-0.0391
GCGGATCC,0.0386
ATTGAATG,0.0183
CCCCCTTA,-0.139
CTGTGGGA,-0.0697
ACCTATCT,-0.225
CGCACCAC,0.16
ATTATACC,0.0402

# Study 4 — technique: competition protein-binding microarray; form: double-stranded DNA, one strand shown; sample: in vitro; concentration: 2 µM; together with: Pho4 competitor, 0.05 µM; reading: higher = stronger binding
# Target: Centromere-binding protein 1, full length, His-tagged (CBF1, Saccharomyces cerevisiae, UniProt P17106, residues 1-351)
# Sequence of UniProt P17106 (whole entry, looked up): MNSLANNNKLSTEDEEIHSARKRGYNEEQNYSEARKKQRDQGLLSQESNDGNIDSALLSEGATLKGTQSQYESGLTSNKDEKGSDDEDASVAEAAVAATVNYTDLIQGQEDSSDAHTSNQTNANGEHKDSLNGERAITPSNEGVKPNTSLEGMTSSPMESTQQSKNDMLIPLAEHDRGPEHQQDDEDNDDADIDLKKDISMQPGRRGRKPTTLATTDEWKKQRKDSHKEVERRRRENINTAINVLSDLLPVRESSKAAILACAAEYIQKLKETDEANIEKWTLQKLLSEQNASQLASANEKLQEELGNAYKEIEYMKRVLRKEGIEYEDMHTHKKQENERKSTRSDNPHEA
# Notes: whole 60-bp probe, lowest competitor level
Oligonucleotide,fluorescence intensity [a.u.]
AGAGAATCGGGCATATTCGTGCGGATTCCTTGTCCGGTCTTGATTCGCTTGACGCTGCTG,61.3
TTGACCCGGAATCTATTCGTGACGGAAAGGTTAAGGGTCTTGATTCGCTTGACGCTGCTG,84.8
CTAACGAAGGTTTGCATGGTGGGTGACAAGCCAAGTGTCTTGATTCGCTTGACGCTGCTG,67.5
TCTCCACTCTTCCTCCACGTGGCCGTACTTTCCCCGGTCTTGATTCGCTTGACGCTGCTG,497
CTTCTTTTTTTGGATTACGTGCTTTTAAAGCGGGATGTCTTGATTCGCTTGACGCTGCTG,92.2
CGGGGTTAAGTTTGCCCTGTGGGTGGCTTGCAGCAGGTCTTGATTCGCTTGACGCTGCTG,64.2
GGGATCGCTATACTCCACGTGAAGTGACGCCTTGGAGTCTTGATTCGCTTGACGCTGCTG,366
AAGAGAAGAAAAAAGCGCGTGGTCGGAGCCGCGCTAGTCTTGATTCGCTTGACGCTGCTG,77.9
GTCAACGCAGATTTGCAGATGCAAGCAAGAATACATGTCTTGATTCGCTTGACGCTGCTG,70
CTAACGAAGGTTTGTCCAGTGGGTGACAAGCCAAGTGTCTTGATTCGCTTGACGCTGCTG,64.4
GCCCATCGAAATTAGCACGATAGAGGAAGAGCAATCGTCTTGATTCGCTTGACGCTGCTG,67.4
CTCTGCCCTGCTTAGCACGTAGAAGGTCTCCGGCTGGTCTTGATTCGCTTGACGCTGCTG,55.4
CGGCCGGGTGAAAAGCACGTCGTTTAGGGGGGACCCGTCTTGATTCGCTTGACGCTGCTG,98.7
GGGTGTGCATCTGGGCATGATCTACCAAGAGGACAGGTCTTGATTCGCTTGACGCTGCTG,73.4
GGATGAAAAACATAAAATGTGACGGATAGTGCCACCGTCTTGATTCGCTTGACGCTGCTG,86.7
TAATGAACTTTGTCCCACGTGCGGACATCATTTACTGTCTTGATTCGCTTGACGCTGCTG,833
TTCTCGGACTTAAAGCATGTGCTCACCATACTACCAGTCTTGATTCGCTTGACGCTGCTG,187
CTTCGCGCCACATCGCACGGGTGCAGGAACAACTGTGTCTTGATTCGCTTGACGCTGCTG,64.5
CGGGGTTAAGTTTGCGAAGTGGGTGGCTTGCAGCAGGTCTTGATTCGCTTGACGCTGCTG,75.9
CGGGGTTAAGTTTGCACGGTGGGTGGCTTGCAGCAGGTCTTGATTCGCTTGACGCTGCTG,70.2
TGCGCAACAACTTGGCTAGTGGGTGTATGTCTAGAAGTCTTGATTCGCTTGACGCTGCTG,48.9
AACGACACCGGCACCTTCGTGACGGCCAACTAATGGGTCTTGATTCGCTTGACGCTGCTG,65
TGCGCAACAACTTGCGCCGTGGGTGTATGTCTAGAAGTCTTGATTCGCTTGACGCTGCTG,57.4
CAGCAATGAATTTGGCTCGTGATGGGGGCCCAGGTCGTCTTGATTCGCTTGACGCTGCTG,205
CTAACGAAGGTTTGAGCTGTGGGTGACAAGCCAAGTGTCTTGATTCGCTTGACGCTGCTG,68.3

# Excerpt of the above (study 3):
Oligonucleotide,E-score
ACCTATCT,-0.225
ATTATACC,0.0402
CACTGGGC,-0.0391
GAGACCAC,0.102
GGTACGGA,-0.0766
AGTCACCG,-0.0995
CCCCCTTA,-0.139
CTGCAGGC,-0.0127
ATTGAATG,0.0183
